Measurements from different studies.
Parts stem from different laboratories: compare values within a part only.

Study 1 — technique: protein-binding microarray; form: double-stranded DNA, one strand shown; matrix: in vitro; concentration: 2540 nM top; notes: 60-bp whole probe; added: salmon DNA 0.4 mg/ml; reference: random background probes; direction: higher = stronger binding; constant ends, left off below: GCCTAGCAC … GTCTTGATTCGCTTGACGCTGCTG
Target: Interferon regulatory factor 3, full length, phosphomimetic (IRF3, Homo sapiens, UniProt Q14653, residues 1-427, S386D/S396D/S398D/S402D/T404D/S405D)
Construct (chain): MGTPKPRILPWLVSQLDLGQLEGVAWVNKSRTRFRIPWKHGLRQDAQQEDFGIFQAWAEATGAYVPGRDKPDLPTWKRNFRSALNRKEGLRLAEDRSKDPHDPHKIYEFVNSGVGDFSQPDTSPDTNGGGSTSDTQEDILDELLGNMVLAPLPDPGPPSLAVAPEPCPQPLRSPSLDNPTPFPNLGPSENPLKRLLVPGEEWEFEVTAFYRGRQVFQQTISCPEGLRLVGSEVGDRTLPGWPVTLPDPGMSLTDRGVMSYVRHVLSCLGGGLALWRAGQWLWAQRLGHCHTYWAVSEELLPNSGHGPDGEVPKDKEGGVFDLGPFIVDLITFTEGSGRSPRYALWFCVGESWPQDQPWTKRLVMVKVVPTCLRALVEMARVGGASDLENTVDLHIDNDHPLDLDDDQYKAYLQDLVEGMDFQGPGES
Under “fitted relative affinity”, `GACGCTTCCGGTTTCGGGACGTGCTAG` is recorded as 4.45 z-score.
Under “fitted relative affinity”, `TTAGGAATGGACTATCGGTTAGTGCTA` is recorded as -0.326 z-score.
`GACGATATCGGGTATCGAGATGTGCTA`: “fitted relative affinity” 0.261 z-score.
`TTAGCTATCGACTTTCGGTTAGTGCTA` — result for “fitted relative affinity”: 1.29 z-score.
For `GACGATTGCAGTCTCGAGACGTGCTAG`, “fitted relative affinity” read 0.501 z-score.
`TCATCTAGGTTTTCTGGAACTGTGCTA`: “fitted relative affinity” 0.276 z-score.
Under “fitted relative affinity”, `GACGGTATCGGGCTCGGGACGTGCTAG` is recorded as 0.987 z-score.
Under “fitted relative affinity”, `TTAGATTTCGGTTCCGATTAGTGCTAG` is recorded as 6.87 z-score.
`GACAGACTGCTTCTCCTGACGTGCTAG` — result for “fitted relative affinity”: -0.198 z-score.
For `GACGATTGCGGGTTTCGAGACGTGCTA`, “fitted relative affinity” read 0.885 z-score.
For `ATGCTTTACTCACTCGGAAAGTGCTAG`, “fitted relative affinity” read 0.0858 z-score.
`GACGGTATCGGGTATCGGGGCGTGCTA`: “fitted relative affinity” 1.76 z-score.
`TTAGGTTTCCTTTTTCTTTAGTGCTAG` — result for “fitted relative affinity”: 11.3 z-score.
`TCATTTTTGGTAATAGTACTGTGCTAG`: “fitted relative affinity” 1.3 z-score.
For `ATTTTTTTGTAATCGAAATCTGTGCTA`, “fitted relative affinity” read 0.939 z-score.
Under “fitted relative affinity”, `TGGTTTTCCTTATTGCTTCCTGTGCTA` is recorded as 4.38 z-score.
`GACGGACTGGGGTTTCGGGGCGTGCTA` — result for “fitted relative affinity”: 0.108 z-score.

Study 2 — technique: protein binding microarray; form: double-stranded DNA, one strand shown; matrix: in vitro; concentration: not given; reference: not given; direction: higher = stronger binding
Target: Histone acetyltransferase KAT6A, winged helix 2, GST fusion (KAT6A, Homo sapiens, UniProt Q92794, residues 85-181)
Notes: 8-mer, flanks averaged, mean of 2 arrays, mostly near background
Construct (chain): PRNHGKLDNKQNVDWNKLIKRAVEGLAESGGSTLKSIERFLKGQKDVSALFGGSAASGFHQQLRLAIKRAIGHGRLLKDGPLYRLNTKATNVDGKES
`AATCTCCA` gave an E-score of -0.0458.
`GTTTGTAA` gave an E-score of 0.0218.
The E-score of `CAATAAGA` is reported as 0.162.
For `GCTGGACC`, the E-score was 0.0931.
The E-score of `GTAATAAA` is reported as -0.0571.
The E-score of `GAAGGTAC` is reported as -0.0261.
The E-score of `ACAGCATG` is reported as -0.0207.
For `GCCATAAA`, the E-score was -0.0833.
`GCCTAGCC` has an E-score of 0.0281.
`ATCTCGAC` gave an E-score of -0.0713.
With `ACATCTTC` the E-score was -0.0502.
With `CGCACTAC` the E-score was 0.153.
For `ACATTCGC`, the E-score was -0.0155.
With `ACTACGGC` the E-score was 0.00696.
`AAGCTGCG` has an E-score of 0.225.
`ATGGTAAC` has an E-score of -0.0671.
For `ACAAACCA`, the E-score was 0.126.
`GAAATCTA` gave an E-score of -0.00429.
For `ACAGGCGG`, the E-score was 0.16.
The E-score of `AGAGGACA` is reported as -0.0805.
`CGGTACCC` gave an E-score of -0.0709.
`CACTAAAA` has an E-score of 0.0501.
With `CTGTACGC` the E-score was -0.0268.
`CAAACCGG` has an E-score of -0.0295.
The E-score of `ATCTATAA` is reported as -0.0497.

Study 3 — technique: RNA Bind-n-Seq; form: RNA; matrix: in vitro; concentration: 1 µM; notes: whole 134-nt RNA, ends assumed; added: 150 mM KCl; reference: input library; direction: higher = stronger binding
Target: Ras GTPase-activating protein-binding protein 1, RRM domain (G3BP1, Homo sapiens, UniProt Q13283)
Sequence of UniProt Q13283 (whole entry, looked up): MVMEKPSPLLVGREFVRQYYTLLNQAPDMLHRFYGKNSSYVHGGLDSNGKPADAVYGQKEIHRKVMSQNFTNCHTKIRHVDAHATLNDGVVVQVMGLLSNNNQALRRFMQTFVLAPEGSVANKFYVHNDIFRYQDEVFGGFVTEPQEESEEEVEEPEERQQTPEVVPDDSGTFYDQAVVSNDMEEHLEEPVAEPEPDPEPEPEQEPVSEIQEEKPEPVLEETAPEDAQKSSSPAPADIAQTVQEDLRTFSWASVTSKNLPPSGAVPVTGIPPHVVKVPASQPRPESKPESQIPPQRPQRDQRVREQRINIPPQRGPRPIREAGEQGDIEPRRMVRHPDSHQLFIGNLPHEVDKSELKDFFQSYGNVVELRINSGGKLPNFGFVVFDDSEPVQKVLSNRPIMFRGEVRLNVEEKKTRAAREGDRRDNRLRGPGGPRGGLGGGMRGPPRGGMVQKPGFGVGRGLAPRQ
`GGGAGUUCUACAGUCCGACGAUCACCAUGCAUGUGGGCAUCUUUGGGAAGUGGGGCAAGGGGGGGAUAGGGAGGGGGGUAACACUUUGGGAACAGGUGGUCCCAGGUCGUUUCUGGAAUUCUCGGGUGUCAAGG` gave a log2 enrichment of -0.526.
For `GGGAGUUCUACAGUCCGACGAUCCUCAAGUCCUGUGCUACACAUCGUAUGUACCGAAUCGGAAAGGAAAAAGGUGGAAAGUAUUAUGUUACGCCGUUCGGAUCUGCACUUCCAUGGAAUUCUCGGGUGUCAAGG`, the log2 enrichment was -0.178.
`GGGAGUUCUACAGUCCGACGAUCUCAUUAGAAGAUCUAAUUGAGAGAGAGGUAACUGGUAUCCUUUUCCUACCAUAAAAACUGAAAGCAGUAUUUAUUGUGAAAUUCUAAUACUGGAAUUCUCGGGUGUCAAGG` gave a log2 enrichment of -0.681.
`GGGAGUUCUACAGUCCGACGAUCUCAAGUCCUGUGCUACACAUCGUAUGUACCGAAUCGGGGUGGGGAGGGGAGGGGAAAGUAUUAUGUUACGCCGUUCGGAUCUGCACUUCCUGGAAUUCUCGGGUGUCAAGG` has a log2 enrichment of 1.1.
For `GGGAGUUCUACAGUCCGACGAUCUGGGAGGUGGAUUUUGUUUAUUUUUUUAGCUCAUGUCCAGGGGUGGGAAUUUUUUUUUAAUAUGUGUCAUGAAUAAAGUUGUUUUUGAAAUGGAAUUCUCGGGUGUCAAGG`, the log2 enrichment was 1.27.
`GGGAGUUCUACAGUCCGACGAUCCCACCAUGACCCCUGACGGUCUGGCUGUGACCCCAACGCCGGUGCCCGUGGUCGGGAGCCAGAUGACCAGACAAGCCCGGCGCCUCUACGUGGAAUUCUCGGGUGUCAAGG` gave a log2 enrichment of -0.66.
For `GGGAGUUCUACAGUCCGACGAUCUUGUCUUCUGAGAUGUUGGGCCCCUCUUGGGAUGGAGAUGAAGCAGAAUCCACUGGUGAAAUCAUUAGACUUGGAGACACAGCACACACCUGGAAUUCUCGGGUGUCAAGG`, the log2 enrichment was -0.0626.
The log2 enrichment of `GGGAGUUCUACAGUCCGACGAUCUCCUGUGCUACACAUCGUAUGUACCGAAUCGGGGUUUGGGGAAAAAGGGGAAAAAGGGGAAAGUAUUAUGUUACGCCGUUCGGAUCUGCAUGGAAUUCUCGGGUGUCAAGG` is reported as 1.15.
With `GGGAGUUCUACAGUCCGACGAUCACCAUGCAGGUGGGCAUCUUUGGGAGGUGGGGCAAGGGGGGGAUAGGGAGGGGGGUAACACUUUGGGAACAGGUGGUCCCAGGUCGUUUCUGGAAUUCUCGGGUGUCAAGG` the log2 enrichment was -0.531.
For `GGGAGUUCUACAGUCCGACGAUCCCCGAGCCGGAGAGGGAGCGCGAGCCGCGCCGGCCCCGGUCGGGCCUCCGAAACCAUGAACUUUCUGCUGUCUUGGGUGCAUUGGAGCCUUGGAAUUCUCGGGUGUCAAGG`, the log2 enrichment was -0.244.

Study 4 — technique: aptamer microarray, sandwich; form: DNA with 2'F-ANA; matrix: in vitro; concentration: 200 nM; added: Cy3 exosite-II aptamer, 400 nM; direction: higher = stronger binding; oligonucleotide: GGTTGGTGTGGTTGG
Target: Prothrombin, mature alpha-thrombin (F2, Homo sapiens, UniProt P00734)
Notes: whole 15-mer aptamer, many near background
For `2'F-ANA at 5 6 8 9 10 11 15`, “mean fluorescence intensity” read 45.7 a.u.
`2'F-ANA at 1 2 4 5 7 8 10 11` — result for “mean fluorescence intensity”: 159 a.u.
`2'F-ANA at 1 3 4 5 7 9 10 12 13 15`: “mean fluorescence intensity” 46.9 a.u.
For `2'F-ANA at 1 2 4 8 9 10 12 14 15`, “mean fluorescence intensity” read 48.7 a.u.
For `2'F-ANA at 2 4 6 8 9 12 13 14`, “mean fluorescence intensity” read 81.4 a.u.
For `2'F-ANA at 5 7 9 10 13 14`, “mean fluorescence intensity” read 42.8 a.u.
For `2'F-ANA at 2 3 4 5 7 8 11 12 14 15`, “mean fluorescence intensity” read 97.5 a.u.
`2'F-ANA at 4 5 6 7 8 9 11 12 15`: “mean fluorescence intensity” 105 a.u.
Under “mean fluorescence intensity”, `2'F-ANA at 6 7 9 10 11` is recorded as 150 a.u.
`2'F-ANA at 2 3 4 6 10 11 12 13`: “mean fluorescence intensity” 341 a.u.
`2'F-ANA at 1 2 4 5 6 9 11 13 15` — result for “mean fluorescence intensity”: 49.6 a.u.
Under “mean fluorescence intensity”, `2'F-ANA at 5 8 9 10 12 13 14 15` is recorded as 51.5 a.u.
`2'F-ANA at 1 3 7 9 15` — result for “mean fluorescence intensity”: 291 a.u.
For `2'F-ANA at 1 2 4 5 7`, “mean fluorescence intensity” read 57.6 a.u.
Under “mean fluorescence intensity”, `2'F-ANA at 1 2 5 6 7 8 11 14 15` is recorded as 47.8 a.u.
Under “mean fluorescence intensity”, `2'F-ANA at 1 2 3 6 12 15` is recorded as 450 a.u.
`2'F-ANA at 1 6 7 11 12 14 15`: “mean fluorescence intensity” 67.7 a.u.
Under “mean fluorescence intensity”, `2'F-ANA at 1 3 5 8 10 11 15` is recorded as 97.4 a.u.
For `2'F-ANA at 1 5 7 8 9 10 15`, “mean fluorescence intensity” read 47.7 a.u.

For quick reference, copied from above (study 4):
For `2'F-ANA at 5 6 8 9 10 11 15`, “mean fluorescence intensity” read 45.7 a.u.
`2'F-ANA at 1 2 4 5 7 8 10 11` — result for “mean fluorescence intensity”: 159 a.u.
`2'F-ANA at 1 3 4 5 7 9 10 12 13 15`: “mean fluorescence intensity” 46.9 a.u.
For `2'F-ANA at 1 2 4 8 9 10 12 14 15`, “mean fluorescence intensity” read 48.7 a.u.
For `2'F-ANA at 2 4 6 8 9 12 13 14`, “mean fluorescence intensity” read 81.4 a.u.
For `2'F-ANA at 5 7 9 10 13 14`, “mean fluorescence intensity” read 42.8 a.u.
